Published values gathered from unrelated publications.
± marks the error that the study gave. The star is where a group is joined.
ESR2: Estrogen receptor beta (ESR2, Homo sapiens, UniProt Q92731)
UniProt Q92731, sequence (whole entry, looked up): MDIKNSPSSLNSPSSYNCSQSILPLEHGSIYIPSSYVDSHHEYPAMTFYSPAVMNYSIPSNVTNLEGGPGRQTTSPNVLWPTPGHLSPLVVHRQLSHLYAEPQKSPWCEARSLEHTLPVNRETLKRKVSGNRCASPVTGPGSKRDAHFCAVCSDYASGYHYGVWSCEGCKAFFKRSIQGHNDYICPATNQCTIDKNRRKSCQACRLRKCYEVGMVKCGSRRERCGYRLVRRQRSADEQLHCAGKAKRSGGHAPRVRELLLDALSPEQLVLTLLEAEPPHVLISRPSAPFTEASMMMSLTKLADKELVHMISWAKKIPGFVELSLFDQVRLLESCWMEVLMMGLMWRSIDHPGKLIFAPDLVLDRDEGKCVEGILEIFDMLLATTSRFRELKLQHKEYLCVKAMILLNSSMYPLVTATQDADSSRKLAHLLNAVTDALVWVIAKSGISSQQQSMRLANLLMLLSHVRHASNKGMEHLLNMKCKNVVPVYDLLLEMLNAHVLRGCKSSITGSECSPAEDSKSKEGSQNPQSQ
UniProt P30542, sequence (whole entry, looked up): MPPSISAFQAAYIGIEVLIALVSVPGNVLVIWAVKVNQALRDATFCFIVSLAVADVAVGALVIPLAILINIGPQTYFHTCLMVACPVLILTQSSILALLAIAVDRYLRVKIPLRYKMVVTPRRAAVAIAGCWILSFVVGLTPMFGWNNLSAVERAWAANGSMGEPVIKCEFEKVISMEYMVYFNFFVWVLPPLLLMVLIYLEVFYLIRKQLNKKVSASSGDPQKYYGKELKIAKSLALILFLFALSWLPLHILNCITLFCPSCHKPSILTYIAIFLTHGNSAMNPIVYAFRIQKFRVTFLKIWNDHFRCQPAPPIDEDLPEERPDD
UniProt P42574, sequence (whole entry, looked up): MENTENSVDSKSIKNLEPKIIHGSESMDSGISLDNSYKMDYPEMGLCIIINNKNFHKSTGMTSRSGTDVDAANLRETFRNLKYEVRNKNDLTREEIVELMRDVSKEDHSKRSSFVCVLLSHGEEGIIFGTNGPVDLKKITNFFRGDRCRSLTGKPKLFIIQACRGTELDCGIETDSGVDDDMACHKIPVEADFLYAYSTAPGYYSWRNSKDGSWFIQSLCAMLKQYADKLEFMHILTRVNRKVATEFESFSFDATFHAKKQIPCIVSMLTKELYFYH
UniProt P11309, sequence (whole entry, looked up): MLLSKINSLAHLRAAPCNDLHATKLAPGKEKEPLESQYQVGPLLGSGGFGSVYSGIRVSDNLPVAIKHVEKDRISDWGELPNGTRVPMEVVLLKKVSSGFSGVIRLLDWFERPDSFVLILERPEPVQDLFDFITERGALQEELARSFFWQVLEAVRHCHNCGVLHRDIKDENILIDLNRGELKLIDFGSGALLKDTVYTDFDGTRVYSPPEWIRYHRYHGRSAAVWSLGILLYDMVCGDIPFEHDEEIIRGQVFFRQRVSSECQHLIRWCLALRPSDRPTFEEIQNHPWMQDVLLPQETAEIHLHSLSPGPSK
UniProt P0AFU8, sequence (whole entry, looked up): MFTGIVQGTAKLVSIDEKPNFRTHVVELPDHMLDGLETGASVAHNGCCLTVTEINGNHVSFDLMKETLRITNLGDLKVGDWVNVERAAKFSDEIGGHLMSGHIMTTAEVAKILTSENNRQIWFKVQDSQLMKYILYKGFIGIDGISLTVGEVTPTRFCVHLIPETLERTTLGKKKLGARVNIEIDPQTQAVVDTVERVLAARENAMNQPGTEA
UniProt O76082, sequence (whole entry, looked up): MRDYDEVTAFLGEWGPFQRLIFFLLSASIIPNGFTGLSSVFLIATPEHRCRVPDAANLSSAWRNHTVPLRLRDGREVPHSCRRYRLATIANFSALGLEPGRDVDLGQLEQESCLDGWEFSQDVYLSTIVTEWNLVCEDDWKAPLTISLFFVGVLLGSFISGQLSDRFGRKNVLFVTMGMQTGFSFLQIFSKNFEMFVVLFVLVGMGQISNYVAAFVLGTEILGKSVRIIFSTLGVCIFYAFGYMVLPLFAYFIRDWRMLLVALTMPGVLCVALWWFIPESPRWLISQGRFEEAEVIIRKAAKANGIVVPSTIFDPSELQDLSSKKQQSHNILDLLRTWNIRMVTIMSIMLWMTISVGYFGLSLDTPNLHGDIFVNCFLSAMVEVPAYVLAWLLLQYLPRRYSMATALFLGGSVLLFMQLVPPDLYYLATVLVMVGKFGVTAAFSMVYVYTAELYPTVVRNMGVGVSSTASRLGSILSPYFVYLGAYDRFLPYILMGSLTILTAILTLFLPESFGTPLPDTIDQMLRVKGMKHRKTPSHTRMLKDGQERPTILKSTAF
UniProt P23141, sequence (whole entry, looked up): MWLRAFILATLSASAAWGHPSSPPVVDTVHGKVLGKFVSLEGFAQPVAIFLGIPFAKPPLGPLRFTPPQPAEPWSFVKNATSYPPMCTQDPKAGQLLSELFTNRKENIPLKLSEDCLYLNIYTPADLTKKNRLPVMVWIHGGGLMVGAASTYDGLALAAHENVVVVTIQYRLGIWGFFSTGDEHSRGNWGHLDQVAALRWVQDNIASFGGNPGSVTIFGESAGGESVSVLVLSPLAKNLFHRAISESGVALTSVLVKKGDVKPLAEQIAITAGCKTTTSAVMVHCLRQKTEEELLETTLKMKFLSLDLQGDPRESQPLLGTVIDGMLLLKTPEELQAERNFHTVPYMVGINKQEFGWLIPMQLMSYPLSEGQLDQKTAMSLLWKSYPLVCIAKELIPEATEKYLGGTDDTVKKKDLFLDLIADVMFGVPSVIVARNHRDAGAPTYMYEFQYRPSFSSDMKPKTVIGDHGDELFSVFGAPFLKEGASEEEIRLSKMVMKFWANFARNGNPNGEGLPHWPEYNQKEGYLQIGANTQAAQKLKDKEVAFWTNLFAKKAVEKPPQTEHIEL
UniProt P41145, sequence (whole entry, looked up): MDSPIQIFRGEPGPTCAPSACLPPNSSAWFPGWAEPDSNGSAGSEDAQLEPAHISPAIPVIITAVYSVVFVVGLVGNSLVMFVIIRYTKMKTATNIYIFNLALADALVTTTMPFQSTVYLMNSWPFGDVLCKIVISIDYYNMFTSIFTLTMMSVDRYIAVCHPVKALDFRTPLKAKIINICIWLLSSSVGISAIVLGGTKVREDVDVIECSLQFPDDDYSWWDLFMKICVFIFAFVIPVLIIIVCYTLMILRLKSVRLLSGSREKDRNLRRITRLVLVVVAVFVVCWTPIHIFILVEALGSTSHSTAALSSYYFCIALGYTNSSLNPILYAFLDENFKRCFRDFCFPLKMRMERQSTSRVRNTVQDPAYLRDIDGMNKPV
UniProt P69905, sequence (whole entry, looked up): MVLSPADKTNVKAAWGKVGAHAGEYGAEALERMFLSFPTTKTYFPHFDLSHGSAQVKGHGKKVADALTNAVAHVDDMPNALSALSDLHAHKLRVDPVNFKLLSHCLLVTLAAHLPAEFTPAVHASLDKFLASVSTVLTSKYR
UniProt P14780, sequence (whole entry, looked up): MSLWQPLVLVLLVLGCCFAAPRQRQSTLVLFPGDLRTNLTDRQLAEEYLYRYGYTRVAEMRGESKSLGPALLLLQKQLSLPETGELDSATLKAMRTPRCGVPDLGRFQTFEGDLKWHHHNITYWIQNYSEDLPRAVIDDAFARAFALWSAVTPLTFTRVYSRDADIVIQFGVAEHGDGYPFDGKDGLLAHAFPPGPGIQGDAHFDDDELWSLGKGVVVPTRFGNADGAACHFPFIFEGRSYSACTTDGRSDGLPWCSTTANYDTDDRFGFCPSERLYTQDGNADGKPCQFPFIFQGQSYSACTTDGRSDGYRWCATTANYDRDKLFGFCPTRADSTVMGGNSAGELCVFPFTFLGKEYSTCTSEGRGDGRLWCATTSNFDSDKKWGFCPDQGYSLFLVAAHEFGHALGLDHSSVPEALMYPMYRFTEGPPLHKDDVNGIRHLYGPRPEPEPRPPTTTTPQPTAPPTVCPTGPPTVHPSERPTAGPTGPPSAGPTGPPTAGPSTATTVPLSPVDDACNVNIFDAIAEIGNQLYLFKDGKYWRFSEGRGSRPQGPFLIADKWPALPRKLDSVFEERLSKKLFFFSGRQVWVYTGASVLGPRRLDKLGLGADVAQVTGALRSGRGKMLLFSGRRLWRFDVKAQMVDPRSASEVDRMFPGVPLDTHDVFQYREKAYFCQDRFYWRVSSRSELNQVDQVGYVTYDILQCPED
UniProt P34972, sequence (whole entry, looked up): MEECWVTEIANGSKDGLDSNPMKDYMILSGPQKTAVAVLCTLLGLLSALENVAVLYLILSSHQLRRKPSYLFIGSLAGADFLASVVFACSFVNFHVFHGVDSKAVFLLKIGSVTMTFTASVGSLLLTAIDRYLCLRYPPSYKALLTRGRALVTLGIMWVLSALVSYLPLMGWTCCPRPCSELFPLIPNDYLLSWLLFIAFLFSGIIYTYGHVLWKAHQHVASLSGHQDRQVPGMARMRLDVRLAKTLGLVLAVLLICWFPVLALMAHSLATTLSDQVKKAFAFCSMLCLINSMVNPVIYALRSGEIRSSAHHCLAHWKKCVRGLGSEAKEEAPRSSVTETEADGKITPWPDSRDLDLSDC
UniProt O66465, sequence (whole entry, looked up): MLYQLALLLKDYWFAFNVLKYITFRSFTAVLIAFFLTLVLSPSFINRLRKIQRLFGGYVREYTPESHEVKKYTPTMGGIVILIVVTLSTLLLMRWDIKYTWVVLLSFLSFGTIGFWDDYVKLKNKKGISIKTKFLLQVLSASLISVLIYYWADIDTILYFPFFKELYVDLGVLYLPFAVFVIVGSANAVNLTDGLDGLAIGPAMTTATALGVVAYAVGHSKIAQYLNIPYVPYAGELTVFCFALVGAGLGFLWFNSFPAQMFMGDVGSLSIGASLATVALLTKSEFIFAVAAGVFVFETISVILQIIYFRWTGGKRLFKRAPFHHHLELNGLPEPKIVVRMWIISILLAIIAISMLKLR

`CO[C@H]1[C@H](O[C@H]([C@H]2O[C@@H](n3ccc(=O)[nH]c3=O)[C@H](O)[C@@H]2O)[C@H](NCCCNC(=O)[C@H](CC(C)C)NC(=O)[C@@H](NC(=O)N[C@H](C(=O)O)C(C)C)[C@@H]2CCNC(=N)N2)C(=O)O)O[C@H](CN)[C@H]1O` has an IC50 ratio of about 200 fold (mraY (Aquifex aeolicus, UniProt O66465); enzyme activity, inhibitor, fluorescence; baseline: Aquifex aeolicus over Staphylococcus aureus).
For `CC(C)C[C@H](NC(=O)[C@H](CO)NC(=O)[C@H](CC(C)C)NC(=O)[C@@H]1CCCN1C(=O)CNC(=O)[C@H](Cc1ccccc1)NC(=O)Cc1ccc2ccccc2c1)C(=O)N[C@@H](CCCNC(=N)N)C(=O)N[C@@H](CO)C(=O)N[C@@H](CCCCN)C(=O)O`, the hydrolysis product was 100% (MMP9 (Homo sapiens, UniProt P14780); substrate, HPLC; 500 µM, 72 h, pH 7.5, 37 °C).
`RYRHPTRMYY` gave a kcat/Km of 310000 M⁻¹ s⁻¹ (PIM1 (Homo sapiens, UniProt P11309); substrate, coupled enzyme; peptide; pH 7.4, room temperature, together with: 1 mM ATP, 20 mM MgCl2).
The efficacy of `Oc1ccc(-c2c[se]cc2-c2ccc(O)cc2F)c(F)c1` is reported as 58 ± 6% (ESR2; antagonist; HEK293T; highest tested concentration, 24 h, together with: estradiol 10 nM; baseline: estradiol alone).
With `Ac-LDEVD-pNA (N-acetyl, C-pNA; pNA = O=[N+]([O-])c1ccc(N*)cc1)` the kcat/Km was 31700 ± 1670 M⁻¹ s⁻¹ (Caspase-3 (CASP3, Homo sapiens, UniProt P42574); substrate hydrolysis, substrate, colorimetric; pH 7.5).
For `O=[N+]([O-])c1ccc(OP(=O)(O)Oc2ccc([N+](=O)[O-])cc2)cc1`, the remaining activity was 99.9% (CES1 (Homo sapiens, UniProt P23141); irreversible inhibitor; 5× IC50 or 200 µM, 1 h, preincubation then inhibitor removal, together with: o-nitrophenyl acetate substrate).
For `CC(C)(CN1CCC[C@H]1C(N)=O)NC(=O)c1nn(Cc2ccc(F)cc2)c2ccccc12`, the Emax was 68 ± 9% (CNR2 (Homo sapiens, UniProt P34972); calcium mobilization, agonist; CHO-K1 expressing Gαq16; baseline: CP55,940 maximum).
The Ks of `O=c1[nH]c(/C=C/c2ccc3ccccc3c2)c([N+](=O)[O-])c(=O)[nH]1` is reported as 2.2 ± 0.1 µM (Riboflavin synthase (ribC, Escherichia coli, UniProt P0AFU8); enzyme activity, substrate; Escherichia coli, recombinant riboflavin synthase; pH 7.0).
`GGNWST` gave a kcat/Km of 4 M⁻¹ s⁻¹ (UDP-glucose:protein N-beta-glucosyltransferase (Actinobacillus pleuropneumoniae serotype 5b, UniProt A3N2T3, D215R/Q469A); substrate; peptide; 15 min, pH 8.0, 37 °C, D215R mutant, together with: UDP-Glc 100 mM).
The Ke of `Cc1ccc(Oc2ccc(C(=O)N[C@H](CN3CCN(c4cccc(O)c4)[C@@H](C)C3)C(C)C)cc2)cc1` is reported as 0.69 ± 0.25 nM (OPRK1 (Homo sapiens, UniProt P41145); antagonist; CHO; together with: U69593).
`COc1cccc2c1C(=O)c1c(O)c3c(c(O)c1C2=O)C[C@@](O)(C(C)=O)C[C@@H]3O[C@H]1C[C@H](N)[C@H](O)[C@H](C)O1` has an inhibition of 13.7% (SLC22A5 (Homo sapiens, UniProt O76082); transporter uptake, inhibitor; 100 µM).
With `COP(=O)(OC)OCc1ccc(C=O)o1` the P50 change was 35.7 ± 8.1% (Hemoglobin subunit alpha, with sickle beta chain (HBA1, Homo sapiens, UniProt P69905); oxygen affinity; sickle red cell lysate; 2 mM; baseline: untreated).
For `C=C1C(=O)N[C@@H](C)C(=O)N(C)[C@@H](C)C(=O)N[C@@H]([C@H](OC(=O)[C@@H](NC(=O)CC)[C@H](O)C(C)C)C(C)C)C(=O)N(C)[C@@H]([C@@H](C)OC)C(=O)O[C@H](C(C)C)[C@H](NC(C)=O)C(=O)O[C@H](Cc2ccccc2)C(=O)N1C`, “inhibition of NECA-induced cAMP response” read “no effect” (Adenosine receptor A1, with Gαi (ADORA1, Homo sapiens, UniProt P30542); forskolin-stimulated cAMP accumulation, inhibitor; human cells; concentration not given, together with: NECA).
`nitric oxide` has a koff of 0.2 s⁻¹ (H-NOX ferrous, Shewanella oneidensis; ligand, CO displacement).
The efficacy of `Oc1ccc(F)c(-c2ccc(-c3cc(O)ccc3F)[se]2)c1` is reported as 89 ± 6% (ESR2; antagonist; HEK293T; highest tested concentration, 24 h, together with: estradiol 10 nM; baseline: estradiol alone).
For `O=C(Cc1ccccc1)NC1CCOC1=O` (stereo not shown), the activation was -3% (lasR (Pseudomonas aeruginosa, UniProt P25084); reporter gene, agonist; Escherichia coli JLD271/pJN105L/pSC11; 100 µM; baseline: OdDHL 100 µM).
